{"data": "Assay results gathered from unrelated publications", "note": "Protocols differ between the studies behind these lines. Numbers after ± are the reported error.", "UniProt P21729, sequence (whole entry, looked up)": "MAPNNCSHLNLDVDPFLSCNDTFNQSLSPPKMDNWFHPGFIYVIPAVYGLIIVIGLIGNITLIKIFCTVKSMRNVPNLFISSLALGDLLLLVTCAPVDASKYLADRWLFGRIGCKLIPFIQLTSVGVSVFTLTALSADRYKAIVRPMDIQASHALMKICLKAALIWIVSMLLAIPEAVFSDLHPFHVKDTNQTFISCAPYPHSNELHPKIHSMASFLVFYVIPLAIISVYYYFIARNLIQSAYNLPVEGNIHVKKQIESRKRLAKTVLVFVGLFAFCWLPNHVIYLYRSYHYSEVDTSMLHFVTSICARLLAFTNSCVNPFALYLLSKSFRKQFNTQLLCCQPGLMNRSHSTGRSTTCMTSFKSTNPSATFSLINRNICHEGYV"}
{"SMILES": "CC(C)(C)n1cc(CN(Cc2cn(CCOCCOCCOCCOCCOCCOCCC(=O)N[C@@H](CCCNC(=N)N)C(=O)N[C@@H](CCCCN)C(=O)N[C@@H](CCCCN)C(=O)N[C@@H](CCCNC(=N)N)C(=O)N[C@@H](CCCNC(=N)N)C(=O)N[C@@H](CCC(N)=O)C(=O)N[C@@H](CCCNC(=N)N)C(=O)N[C@@H](CCCNC(=N)N)C(=O)N[C@@H](CCCNC(=N)N)C(N)=O)nn2)Cc2cn(C(C)(C)C)nn2)nn1", "tested on": "OVCAR-5", "test": "cellular uptake, LC-ESI-MS/MS", "setting": "200 µM, 10 min, together with: CuSO4 100 µM and ascorbate 500 µM", "quantity": "intracellular concentration", "result": "69 ± 2 µM"}
{"SMILES": "N=C(N)NCCC[C@@H]1NC(=O)[C@H](CCCCNC(=O)CC[C@H](NC(=O)CCOCCOCCOCCOCCNC(=O)CN2CCN(CC(=O)O)CCN(CC(=O)O)CCN(CC(=O)O)CC2)C(=O)NCCCC[C@@H]2NC(=O)[C@@H](Cc3ccccc3)NC(=O)[C@H](CC(=O)O)NC(=O)CNC(=O)[C@H](CCCNC(=N)N)NC2=O)NC(=O)[C@@H](Cc2ccccc2)NC(=O)[C@H](CC(=O)O)NC(=O)CNC1=O [indium-111 labelled]", "test system": "female athymic nude mice, heart", "setting": "intravenous, 3 µCi, 4 h, U-87 MG glioma xenograft", "quantity": "tissue uptake", "result": "0.56 ± 0.15 %ID/g"}
{"SMILES": "CCCC[C@H](NC(=O)CNC(=O)CNC(=O)c1ccc(NN)nc1)C(=O)N[C@H]1CC(=O)NCCCC[C@@H](C(N)=O)NC(=O)[C@H](Cc2c[nH]c3ccccc23)NC(=O)[C@H](CCCNC(=N)N)NC(=O)[C@@H](Cc2ccccc2)NC(=O)[C@H](Cc2c[nH]cn2)NC1=O [technetium-99m labelled]", "test system": "C57 mouse, B16/F1 melanoma, skin", "setting": "2 h, together with: NDP-MSH 6.07 nmol blockade", "quantity": "uptake", "result": "0.34 ± 0.13 %ID/g"}
{"SMILES": "CC[C@H](C)[C@H](NC(=O)[C@H](CO)NC(=O)[C@H](Cc1ccc(O)cc1)NC(=O)[C@H](Cc1ccc(O)cc1)NC(=O)[C@H](CC(N)=O)NC(=O)CNC(=O)[C@H](CO)NC(=O)[C@H](Cc1ccc(O)cc1)NC(=O)[C@H](CO)NC(=O)[C@H](CO)NC(=O)[C@H](CC(N)=O)NC(=O)COCCOCCNC(=O)CN1CCN(CC(=O)O)CCN(CC(=O)O)CCN(CC(=O)O)CC1)C(=O)N[C@@H](CC(C)C)C(N)=O [copper-64 labelled]", "test system": "NOD/SCID mouse CAPAN-1 xenograft", "setting": "intravenous, 2.5 h, together with: 500-fold excess unlabelled compound", "quantity": "tissue uptake", "result": "1.21 ± 0.64 %ID/g"}
{"SMILES": "N=C(N)NCCC[C@@H]1NC(=O)[C@H](CCCCNC(=O)CCOCCOCCOCCOCCNC(=O)CN2CCN(CC(=O)O)CCN(CC(=O)O)CCN(CC(=O)O)CC2)NC(=O)[C@@H](Cc2ccccc2)NC(=O)[C@H](CC(=O)O)NC(=O)CNC1=O [indium-111 labelled]", "test system": "athymic nude mice, female, U-87 MG glioma xenograft, tumour and liver", "setting": "intravenous, 24 h", "scale": "relative to: tumour over liver", "quantity": "tumour to tissue ratio", "result": "3.1 ± 0.47"}
{"SMILES": "CCCC[C@H](NC(=O)CCCCCCCNC(=O)c1ccc(NN)nc1)C(=O)N[C@H]1CC(=O)NCCCC[C@@H](C(N)=O)NC(=O)[C@H](Cc2c[nH]c3ccccc23)NC(=O)[C@H](CCCNC(=N)N)NC(=O)[C@@H](Cc2ccccc2)NC(=O)[C@H](Cc2c[nH]cn2)NC1=O [technetium-99m labelled]", "test system": "C57 mouse, B16/F1 melanoma, brain", "setting": "2 h, together with: L-lysine 12 mg co-injected", "quantity": "tissue uptake", "result": "0.03 ± 0.01 %ID/g"}
{"SMILES": "CSCC[C@H](NC(=O)[C@H](CC(C)C)NC(=O)[C@H](Cc1c[nH]cn1)NC(=O)CNC(=O)[C@@H](NC(=O)[C@H](C)NC(=O)[C@H](Cc1c[nH]c2ccccc12)NC(=O)[C@H](CCC(N)=O)NC(=O)CCCCCNC(=O)CNC(=O)CNC(=O)CNC(=O)CSC(C)=O)C(C)C)C(N)=O [technetium-99m labelled]", "test system": "Swiss mouse, lung", "setting": "intravenous, 18.5 MBq, 5 min", "quantity": "tissue uptake", "result": "1.56 ± 0.33 %ID/g"}
{"SMILES": "N=C(N)NCCC[C@@H]1NC(=O)[C@H](CCCCNC(=O)CCOCCOCCOCCOCCNC(=O)CC[C@H](NC(=O)CCOCCOCCOCCOCCNC(=O)CC[C@H](NC(=O)CN2CCN(CC(=O)O)CCN(CC(=O)O)CCN(CC(=O)O)CC2)C(=O)NCCOCCOCCOCCOCCC(=O)N[C@@H](CCC(=O)NCCOCCOCCOCCOCCC(=O)NCCCC[C@@H]2NC(=O)[C@@H](Cc3ccccc3)NC(=O)[C@H](CC(=O)O)NC(=O)CNC(=O)[C@H](CCCNC(=N)N)NC2=O)C(=O)NCCOCCOCCOCCOCCC(=O)NCCCC[C@@H]2NC(=O)[C@@H](Cc3ccccc3)NC(=O)[C@H](CC(=O)O)NC(=O)CNC(=O)[C@H](CCCNC(=N)N)NC2=O)C(=O)NCCOCCOCCOCCOCCC(=O)NCCCC[C@@H]2NC(=O)[C@@H](Cc3ccccc3)NC(=O)[C@H](CC(=O)O)NC(=O)CNC(=O)[C@H](CCCNC(=N)N)NC2=O)NC(=O)[C@@H](Cc2ccccc2)NC(=O)[C@H](CC(=O)O)NC(=O)CNC1=O [indium-111 labelled]", "test system": "female athymic nude mice, lungs", "setting": "intravenous, 3 µCi, 0.5 h, U-87 MG glioma xenograft", "quantity": "tissue uptake", "result": "4.06 ± 0.88 %ID/g"}
{"SMILES": "CCCNC(=O)[C@H](CC(C)C)NC(=O)[C@H](Cc1c[nH]cn1)NC(=O)CNC(=O)[C@@H](NC(=O)[C@H](C)NC(=O)[C@H](Cc1c[nH]c2ccccc12)NC(=O)[C@H](CCC(N)=O)NC(=O)[C@@H](Cc1ccccc1)NC(=O)CCCCCNC(=O)CN1CCN(CC(=O)O)CCN(CC(=O)O)CCN(CC(=O)O)CC1)C(C)C [indium-111 labelled]", "tested on": "Gastrin-releasing peptide receptor (Mus musculus, UniProt P21729)", "test": "biodistribution", "test system": "CF-1 mice, kidneys", "setting": "intravenous, 1 h, together with: bombesin 100 µg, blocking", "quantity": "tissue uptake", "result": "1.44 ± 0.26 %ID/g"}
{"note": "Some of these lines once more:"}
{"SMILES": "CC(C)(C)n1cc(CN(Cc2cn(CCOCCOCCOCCOCCOCCOCCC(=O)N[C@@H](CCCNC(=N)N)C(=O)N[C@@H](CCCCN)C(=O)N[C@@H](CCCCN)C(=O)N[C@@H](CCCNC(=N)N)C(=O)N[C@@H](CCCNC(=N)N)C(=O)N[C@@H](CCC(N)=O)C(=O)N[C@@H](CCCNC(=N)N)C(=O)N[C@@H](CCCNC(=N)N)C(=O)N[C@@H](CCCNC(=N)N)C(N)=O)nn2)Cc2cn(C(C)(C)C)nn2)nn1", "tested on": "OVCAR-5", "test": "cellular uptake, LC-ESI-MS/MS", "setting": "200 µM, 10 min, together with: CuSO4 100 µM and ascorbate 500 µM", "quantity": "intracellular concentration", "result": "69 ± 2 µM"}
